Published values gathered from unrelated publications.
Protocols differ between the studies behind these lines. ± gives the spread as reported.

SMILES = CC(C)C[C@@H](NC(=O)[C@@H](CCCNC(=N)N)NC(=O)[C@@H](Cc1c[nH]cn1)NC(=O)[C@@H](Cc1c[nH]c2ccccc12)NC(=O)[C@@H](Cc1c[nH]cn1)NC(=O)[C@@H](Cc1ccccc1)NC(=O)[C@H](NC(=O)[C@@H](Cc1ccc(O)cc1)NC(=O)CNC(=O)CNC(=O)CCOCCOCCOCCNC(=O)CN1CCN(CC(=O)O)CCN(CC(=O)O)CC1)[C@H](C)O)C(=O)N[C@H](CC(N)=O)C(=O)N1CCC[C@@H]1C(=O)O [gallium-68 labelled]; assay = gamma counting; system = C57BL/6 mice, male, muscle; setting = intravenous, 1.85 MBq, 120 min; tissue uptake = 0.52 ± 0.09 %ID/g
SMILES = CC[C@H](C)[C@H](NC(=O)[C@H](CCCNC(=N)N)NC(=O)[C@H](CCCCN)NC(=O)[C@H](Cc1ccc(O)cc1)NC(=O)[C@H](CC(=O)O)NC(=O)[C@H](C)NC(=O)CNC(=O)CCOCCOCCOCCNC(=O)CN1CCN(CC(=O)O)CCN(CC(=O)O)CCN(CC(=O)O)CC1)C(=O)N[C@H](C(=O)N[C@@H](CC(C)C)C(=O)N[C@@H](CCCCN)C(=O)N[C@H](C(=O)N[C@@H](CC(N)=O)C(N)=O)C(C)C)[C@@H](C)O [copper-64 labelled]; assay = ex vivo gamma counting; system = C57BL/6J male mice, B16-F10 tumour, kidney; setting = intravenous, 1.85 MBq, 20 min; tissue uptake = 14 ± 6.44 %ID/g
SMILES = CC[C@H](C)[C@H](NC(=O)[C@H](CCCCN)NC(=O)CNC(=O)[C@H](CC(C)C)NC(=O)[C@H](Cc1ccccc1)NC(=O)[C@H](CCCCN)NC(=O)[C@H](CO)NC(=O)[C@H](Cc1ccccc1)NC(=O)[C@H](Cc1c[nH]c2ccccc12)NC(=O)[C@H](CCC(N)=O)NC(=O)[C@@H](NC(=O)[C@H](Cc1ccccc1)NC(=O)CCCCCNC(=O)CN1CCN(CC(=O)O)CCN(CC(=O)O)CCN(CC(=O)O)CC1)C(C)C)C(=O)N[C@@H](CCC(=O)O)C(=O)N1CCC[C@H]1C(=O)N[C@@H](CC(=O)O)C(=O)N[C@H](C(=O)N[C@@H](CO)C(=O)N[C@@H](CCC(N)=O)C(=O)N[C@H](C(=O)N[C@@H](CCC(N)=O)C(=O)N[C@@H](CC(=O)O)C(=O)N1CCC[C@H]1C(=O)N[C@@H](CC(N)=O)C(=O)N[C@@H](CC(=O)O)C(=O)N[C@@H](CCC(N)=O)C(=O)N[C@@H](Cc1ccc(O)cc1)C(=O)N[C@@H](CCC(=O)O)C(=O)N1CCC[C@H]1C(=O)N[C@@H](Cc1ccccc1)C(=O)O)C(C)C)C(C)C [copper-64 labelled]; system = C57BL/6 mice, male, tumour-free, kidneys; setting = 1 h; tissue uptake = 90.3 ± 7.2 %ID/g
SMILES = C[C@H](O)[C@@H](NC(=O)[C@H]1CCCN1C(=O)[C@@H](CCCCN)NC(=O)[C@@H](CO)NC(=O)[C@@H](Cc1ccc(O)cc1)NC(=O)[C@@H](CC(N)=O)NC(=O)CCOCCOCCOCCNC(=O)CN1CCN(CC(=O)O)CCN(CC(=O)O)CCN(CC(=O)O)CC1)C(=O)N[C@H](CC(=O)O)C(=O)N[C@H](CCCNC(=N)N)C(=O)N[C@H](CCC(N)=O)C(=O)N[C@H](Cc1ccc(O)cc1)C(=O)N[C@H](Cc1c[nH]cn1)C(=O)N[C@H](Cc1ccccc1)C(N)=O [gallium-68 labelled]; system = BALB/c nude mice U-87 MG tumour, lung; setting = intravenous, 1.85 MBq, 0.5 h, radiolabelled; tissue uptake = 1.03 ± 0.9 %ID/g
SMILES = [2H]C([2H])([18F])[C@]([2H])(N)C(=O)O; assay = PET; system = athymic nude mice, U-87 MG, tumor; setting = dose not given, 30 min post-injection; tissue uptake = 1.89 ± 0.25 %ID/cc
SMILES = CCCC[C@H]1C(=O)N(C)[C@@H](CCCC)C(=O)N[C@@H](CCCNC(=O)CN2CCN(CC(=O)O)CCN(CC(=O)O)CCN(CC(=O)O)CC2)C(=O)N[C@H](C(=O)NCC(N)=O)CSCC(=O)N[C@@H](Cc2ccc(O)cc2)C(=O)N(C)[C@@H](C)C(=O)N[C@@H](CC(N)=O)C(=O)N2CCC[C@H]2C(=O)N[C@@H](Cc2c[nH]cn2)C(=O)N[C@@H](CC(C)C)C(=O)N(C)CC(=O)N[C@@H](Cc2c[nH]c3ccccc23)C(=O)N[C@@H](CO)C(=O)N[C@@H](Cc2c[nH]c3ccccc23)C(=O)N1C [gallium-68 labelled]; system = NOD/SCID mice, CHO-hPD-L1 xenograft, muscle; setting = 60 min, atezolizumab 10 mg/kg pretreatment; tissue uptake = 1.09 ± 0.11 %ID/g
SMILES = CC[C@H](C)[C@H](NC(=O)[C@H](CCCNC(=N)N)NC(=O)[C@H](CCCCN)NC(=O)[C@H](Cc1ccc(O)cc1)NC(=O)[C@H](CC(=O)O)NC(=O)[C@H](C)NC(=O)CNC(=O)CCOCCOCCOCCNC(=O)CN1CCN(CC(=O)O)CCN(CC(=O)O)CCN(CC(=O)O)CC1)C(=O)N[C@H](C(=O)N[C@H](C(=O)N[C@@H](CCCCN)C(=O)N[C@H](C(=O)N[C@@H](CC(N)=O)C(N)=O)C(C)C)C(C)C)[C@@H](C)O [copper-64 labelled]; assay = ex vivo gamma counting; system = C57BL/6J male mice, B16-F10 tumour, pancreas; setting = intravenous, 1.85 MBq, 100 min; tissue uptake = 0.534 ± 0.119 %ID/g
SMILES = CSCC[C@H](NC(=O)CNC(=O)[C@H](CCCCN)NC(=O)[C@H](CC(C)C)NC(=O)[C@@H]1CCCN1C(=O)[C@H](CO)NC(=O)[C@H](Cc1c[nH]cn1)NC(=O)[C@H](Cc1c[nH]c2ccccc12)NC(=O)[C@H](CCCNC(=N)N)NC(=O)[C@H](CC(C)C)NC(=O)[C@H](CCCNC(=N)N)NC(=O)[C@H](Cc1c[nH]c2ccccc12)NC(=O)[C@H](CS)NC(=O)CCCCCNC(=O)CN1CCN(CC(=O)O)CCN(CC(=O)O)CCN(CC(=O)O)CC1)C(=O)O [copper-64 labelled]; assay = ex vivo biodistribution; system = BALB/c nude mice, bladder; setting = intravenous, dose not given, 18 h, Huh-7 tumour-bearing; tissue uptake = 1.25 %ID/g

Excerpt of the above:
SMILES = CSCC[C@H](NC(=O)CNC(=O)[C@H](CCCCN)NC(=O)[C@H](CC(C)C)NC(=O)[C@@H]1CCCN1C(=O)[C@H](CO)NC(=O)[C@H](Cc1c[nH]cn1)NC(=O)[C@H](Cc1c[nH]c2ccccc12)NC(=O)[C@H](CCCNC(=N)N)NC(=O)[C@H](CC(C)C)NC(=O)[C@H](CCCNC(=N)N)NC(=O)[C@H](Cc1c[nH]c2ccccc12)NC(=O)[C@H](CS)NC(=O)CCCCCNC(=O)CN1CCN(CC(=O)O)CCN(CC(=O)O)CCN(CC(=O)O)CC1)C(=O)O [copper-64 labelled]; assay = ex vivo biodistribution; system = BALB/c nude mice, bladder; setting = intravenous, dose not given, 18 h, Huh-7 tumour-bearing; tissue uptake = 1.25 %ID/g
